Measured values pooled from the literature.
± marks the error that the study gave.
IDO1: Indoleamine 2,3-dioxygenase 1 (IDO1, Homo sapiens, UniProt P14902)

Protein sequences, listed by entry. Tags and fused reporters are not part of them. Residues count along the entry.
UniProt P29466, whole entry, looked up: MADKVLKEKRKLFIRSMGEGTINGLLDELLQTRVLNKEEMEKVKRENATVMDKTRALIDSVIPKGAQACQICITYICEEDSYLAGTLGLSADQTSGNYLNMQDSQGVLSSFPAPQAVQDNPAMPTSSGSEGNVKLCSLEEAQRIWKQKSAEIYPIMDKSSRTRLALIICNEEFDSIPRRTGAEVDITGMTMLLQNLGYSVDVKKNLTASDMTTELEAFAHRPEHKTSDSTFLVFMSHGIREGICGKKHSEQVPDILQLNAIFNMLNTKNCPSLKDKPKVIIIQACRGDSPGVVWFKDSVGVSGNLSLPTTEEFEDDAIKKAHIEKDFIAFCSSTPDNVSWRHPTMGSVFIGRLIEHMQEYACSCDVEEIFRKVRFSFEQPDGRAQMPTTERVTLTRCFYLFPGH
UniProt P03372, whole entry: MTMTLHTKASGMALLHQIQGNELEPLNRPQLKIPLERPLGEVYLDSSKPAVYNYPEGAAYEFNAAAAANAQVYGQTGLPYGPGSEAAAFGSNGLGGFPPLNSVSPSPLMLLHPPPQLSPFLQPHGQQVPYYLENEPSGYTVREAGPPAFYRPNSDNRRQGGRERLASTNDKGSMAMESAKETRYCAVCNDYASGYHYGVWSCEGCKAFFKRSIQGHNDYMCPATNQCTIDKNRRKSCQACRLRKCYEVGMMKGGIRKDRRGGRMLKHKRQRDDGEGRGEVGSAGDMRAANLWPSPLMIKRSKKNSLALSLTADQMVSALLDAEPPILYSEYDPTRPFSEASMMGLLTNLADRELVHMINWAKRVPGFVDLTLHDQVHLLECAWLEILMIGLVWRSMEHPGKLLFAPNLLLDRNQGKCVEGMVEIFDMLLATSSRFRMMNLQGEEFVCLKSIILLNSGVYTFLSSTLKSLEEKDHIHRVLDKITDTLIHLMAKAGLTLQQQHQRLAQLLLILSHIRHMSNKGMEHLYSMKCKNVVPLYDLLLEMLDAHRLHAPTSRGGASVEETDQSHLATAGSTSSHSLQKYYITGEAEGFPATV
UniProt Q96RJ0, whole entry: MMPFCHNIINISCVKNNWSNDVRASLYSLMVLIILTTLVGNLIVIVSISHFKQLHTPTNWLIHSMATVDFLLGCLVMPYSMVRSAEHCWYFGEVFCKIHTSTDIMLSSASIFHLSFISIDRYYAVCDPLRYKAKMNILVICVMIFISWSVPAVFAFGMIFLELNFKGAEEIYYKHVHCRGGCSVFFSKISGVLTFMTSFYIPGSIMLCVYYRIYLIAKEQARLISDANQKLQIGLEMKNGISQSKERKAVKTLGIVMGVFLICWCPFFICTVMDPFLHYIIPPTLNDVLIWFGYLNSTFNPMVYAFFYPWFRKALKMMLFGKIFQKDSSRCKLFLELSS
UniProt P19491, 22-883 limits assumed: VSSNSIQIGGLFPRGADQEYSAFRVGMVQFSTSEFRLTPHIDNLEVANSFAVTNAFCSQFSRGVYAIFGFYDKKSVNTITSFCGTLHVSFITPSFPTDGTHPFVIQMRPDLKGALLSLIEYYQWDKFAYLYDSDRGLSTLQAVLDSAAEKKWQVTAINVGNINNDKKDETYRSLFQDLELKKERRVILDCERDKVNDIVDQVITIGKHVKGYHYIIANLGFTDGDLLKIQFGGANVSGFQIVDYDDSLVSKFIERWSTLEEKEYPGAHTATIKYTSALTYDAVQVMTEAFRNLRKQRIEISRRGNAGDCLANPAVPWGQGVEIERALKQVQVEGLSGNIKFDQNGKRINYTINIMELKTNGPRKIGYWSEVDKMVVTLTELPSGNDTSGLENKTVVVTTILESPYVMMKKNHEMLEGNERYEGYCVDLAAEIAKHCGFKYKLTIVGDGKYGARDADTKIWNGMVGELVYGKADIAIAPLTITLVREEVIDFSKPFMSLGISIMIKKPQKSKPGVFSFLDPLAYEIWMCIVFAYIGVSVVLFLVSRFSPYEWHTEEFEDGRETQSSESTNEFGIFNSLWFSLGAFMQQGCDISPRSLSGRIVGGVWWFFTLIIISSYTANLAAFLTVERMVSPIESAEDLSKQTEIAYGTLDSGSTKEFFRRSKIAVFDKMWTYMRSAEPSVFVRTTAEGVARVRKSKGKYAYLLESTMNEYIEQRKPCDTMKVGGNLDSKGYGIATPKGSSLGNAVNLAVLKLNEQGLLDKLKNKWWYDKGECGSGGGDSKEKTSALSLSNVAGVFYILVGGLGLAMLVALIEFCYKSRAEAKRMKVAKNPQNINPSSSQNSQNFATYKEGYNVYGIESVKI
UniProt Q9UBN7, whole entry: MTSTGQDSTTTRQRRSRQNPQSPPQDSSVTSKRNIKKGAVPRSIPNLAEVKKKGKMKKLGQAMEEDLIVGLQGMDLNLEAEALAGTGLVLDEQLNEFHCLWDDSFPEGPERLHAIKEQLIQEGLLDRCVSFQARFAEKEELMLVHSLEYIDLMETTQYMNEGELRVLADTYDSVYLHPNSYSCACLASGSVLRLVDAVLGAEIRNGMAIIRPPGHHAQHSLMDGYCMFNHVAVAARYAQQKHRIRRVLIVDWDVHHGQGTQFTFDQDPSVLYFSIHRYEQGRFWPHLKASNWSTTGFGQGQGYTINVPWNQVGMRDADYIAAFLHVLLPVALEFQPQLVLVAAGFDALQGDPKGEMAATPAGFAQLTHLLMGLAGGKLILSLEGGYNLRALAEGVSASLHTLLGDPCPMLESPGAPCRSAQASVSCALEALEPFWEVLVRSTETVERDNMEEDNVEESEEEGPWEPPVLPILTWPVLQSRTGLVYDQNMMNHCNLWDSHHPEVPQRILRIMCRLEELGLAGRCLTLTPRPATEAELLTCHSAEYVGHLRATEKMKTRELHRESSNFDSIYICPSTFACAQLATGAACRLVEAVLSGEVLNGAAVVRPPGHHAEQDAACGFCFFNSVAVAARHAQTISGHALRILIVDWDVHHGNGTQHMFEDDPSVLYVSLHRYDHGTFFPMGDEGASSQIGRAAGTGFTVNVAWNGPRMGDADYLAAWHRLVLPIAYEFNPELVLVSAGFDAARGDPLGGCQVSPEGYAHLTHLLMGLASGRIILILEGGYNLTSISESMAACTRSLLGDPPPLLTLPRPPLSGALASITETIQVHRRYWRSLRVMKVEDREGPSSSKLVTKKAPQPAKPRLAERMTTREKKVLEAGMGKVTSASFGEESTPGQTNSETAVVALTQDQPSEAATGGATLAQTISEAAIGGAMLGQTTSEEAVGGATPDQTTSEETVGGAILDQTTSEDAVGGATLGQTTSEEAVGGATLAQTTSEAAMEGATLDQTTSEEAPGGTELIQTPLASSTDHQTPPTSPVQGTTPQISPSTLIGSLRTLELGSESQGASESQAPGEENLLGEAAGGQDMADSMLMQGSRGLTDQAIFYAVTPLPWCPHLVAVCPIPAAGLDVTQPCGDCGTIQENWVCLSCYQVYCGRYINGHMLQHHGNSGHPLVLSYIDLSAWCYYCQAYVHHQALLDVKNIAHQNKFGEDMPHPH
UniProt P09619, 33-1106 limits assumed: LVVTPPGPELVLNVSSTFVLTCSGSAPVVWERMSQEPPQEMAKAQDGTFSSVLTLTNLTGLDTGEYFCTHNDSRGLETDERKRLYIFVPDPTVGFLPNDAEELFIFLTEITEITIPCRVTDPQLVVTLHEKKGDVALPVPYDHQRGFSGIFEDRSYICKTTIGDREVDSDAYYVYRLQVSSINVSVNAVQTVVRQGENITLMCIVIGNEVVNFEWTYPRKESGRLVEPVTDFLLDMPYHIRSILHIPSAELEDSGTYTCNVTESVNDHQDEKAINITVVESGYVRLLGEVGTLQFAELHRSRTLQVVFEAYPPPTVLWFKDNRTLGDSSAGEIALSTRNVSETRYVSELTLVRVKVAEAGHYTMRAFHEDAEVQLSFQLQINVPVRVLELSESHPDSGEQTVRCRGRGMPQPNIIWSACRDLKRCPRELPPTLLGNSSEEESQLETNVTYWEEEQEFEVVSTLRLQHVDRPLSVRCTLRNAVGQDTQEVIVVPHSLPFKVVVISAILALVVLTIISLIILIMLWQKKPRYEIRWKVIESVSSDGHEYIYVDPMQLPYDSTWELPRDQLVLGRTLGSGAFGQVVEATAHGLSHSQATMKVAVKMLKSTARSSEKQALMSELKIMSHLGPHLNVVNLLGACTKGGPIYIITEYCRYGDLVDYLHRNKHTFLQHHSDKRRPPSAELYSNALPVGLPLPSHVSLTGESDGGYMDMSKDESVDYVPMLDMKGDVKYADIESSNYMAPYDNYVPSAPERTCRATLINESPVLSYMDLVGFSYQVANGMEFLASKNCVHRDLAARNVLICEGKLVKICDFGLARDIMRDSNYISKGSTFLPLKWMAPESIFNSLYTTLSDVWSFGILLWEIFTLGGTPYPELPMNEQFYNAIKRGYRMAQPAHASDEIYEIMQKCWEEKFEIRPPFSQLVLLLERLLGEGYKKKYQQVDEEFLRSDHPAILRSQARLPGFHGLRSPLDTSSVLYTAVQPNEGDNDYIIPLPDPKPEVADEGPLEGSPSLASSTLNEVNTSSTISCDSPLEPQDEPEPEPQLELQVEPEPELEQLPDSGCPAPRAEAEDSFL
UniProt P10747, whole entry, looked up: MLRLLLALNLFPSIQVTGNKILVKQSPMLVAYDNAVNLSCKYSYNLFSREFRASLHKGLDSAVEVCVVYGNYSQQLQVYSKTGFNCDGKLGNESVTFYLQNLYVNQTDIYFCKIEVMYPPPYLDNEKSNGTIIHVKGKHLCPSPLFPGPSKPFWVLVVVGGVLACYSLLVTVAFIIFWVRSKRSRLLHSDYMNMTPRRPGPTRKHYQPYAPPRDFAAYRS
UniProt O00748, 27-559 limits assumed: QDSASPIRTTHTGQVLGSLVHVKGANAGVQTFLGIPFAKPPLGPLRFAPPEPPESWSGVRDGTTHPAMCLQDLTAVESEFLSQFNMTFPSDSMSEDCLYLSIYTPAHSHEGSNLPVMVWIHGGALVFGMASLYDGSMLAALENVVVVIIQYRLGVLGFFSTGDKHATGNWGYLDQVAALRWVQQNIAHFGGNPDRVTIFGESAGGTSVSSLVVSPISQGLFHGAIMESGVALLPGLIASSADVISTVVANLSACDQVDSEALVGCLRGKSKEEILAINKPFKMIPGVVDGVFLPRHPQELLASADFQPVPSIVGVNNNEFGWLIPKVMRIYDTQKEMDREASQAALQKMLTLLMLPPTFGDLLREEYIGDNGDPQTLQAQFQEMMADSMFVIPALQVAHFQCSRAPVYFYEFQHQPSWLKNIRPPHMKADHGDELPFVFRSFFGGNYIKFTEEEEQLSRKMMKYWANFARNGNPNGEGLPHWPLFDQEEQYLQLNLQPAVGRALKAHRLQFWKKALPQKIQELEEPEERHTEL
UniProt O75874, whole entry R132H: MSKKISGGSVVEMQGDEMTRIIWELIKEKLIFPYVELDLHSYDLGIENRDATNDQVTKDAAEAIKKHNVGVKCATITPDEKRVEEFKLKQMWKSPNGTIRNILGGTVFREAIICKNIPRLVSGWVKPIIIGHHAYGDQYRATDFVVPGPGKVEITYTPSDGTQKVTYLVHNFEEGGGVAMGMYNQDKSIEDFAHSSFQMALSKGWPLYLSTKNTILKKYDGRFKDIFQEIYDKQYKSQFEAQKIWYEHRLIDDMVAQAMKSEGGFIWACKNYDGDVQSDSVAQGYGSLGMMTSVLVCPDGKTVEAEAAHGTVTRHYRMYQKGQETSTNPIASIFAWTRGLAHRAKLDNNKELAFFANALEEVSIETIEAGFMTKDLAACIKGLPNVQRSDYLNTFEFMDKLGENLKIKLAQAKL
UniProt P05067, 672-713 limits assumed: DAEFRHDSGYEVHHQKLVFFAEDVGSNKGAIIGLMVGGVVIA
UniProt Q8TF76, whole entry: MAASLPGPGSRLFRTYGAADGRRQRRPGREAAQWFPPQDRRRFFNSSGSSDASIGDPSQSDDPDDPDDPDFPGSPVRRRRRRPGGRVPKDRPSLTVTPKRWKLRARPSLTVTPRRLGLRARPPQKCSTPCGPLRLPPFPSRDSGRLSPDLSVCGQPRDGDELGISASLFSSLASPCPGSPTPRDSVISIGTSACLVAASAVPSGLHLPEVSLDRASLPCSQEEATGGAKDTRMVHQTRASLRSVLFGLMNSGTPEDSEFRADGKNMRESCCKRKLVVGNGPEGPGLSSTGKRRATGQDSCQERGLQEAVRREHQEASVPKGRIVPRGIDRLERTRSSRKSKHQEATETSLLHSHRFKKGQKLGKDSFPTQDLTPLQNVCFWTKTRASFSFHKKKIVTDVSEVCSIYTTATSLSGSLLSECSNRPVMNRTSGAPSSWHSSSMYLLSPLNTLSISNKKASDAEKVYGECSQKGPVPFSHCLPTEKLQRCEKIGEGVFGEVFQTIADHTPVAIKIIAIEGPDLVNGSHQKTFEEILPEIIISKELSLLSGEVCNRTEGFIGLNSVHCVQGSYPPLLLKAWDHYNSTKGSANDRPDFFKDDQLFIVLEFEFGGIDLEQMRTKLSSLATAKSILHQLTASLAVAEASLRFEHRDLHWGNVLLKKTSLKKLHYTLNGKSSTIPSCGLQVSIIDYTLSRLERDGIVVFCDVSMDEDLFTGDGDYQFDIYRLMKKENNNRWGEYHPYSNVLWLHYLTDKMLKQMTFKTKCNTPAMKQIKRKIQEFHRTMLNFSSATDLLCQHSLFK

For `FC(F)(F)c1ccc(CCN2CCN(c3cc(N4CCCC4)nc(N4CCCC4)n3)CC2)cc1`, the IC50 was 13 nM (Caspase-1 (CASP1, Homo sapiens, UniProt P29466); enzyme activity, inhibitor; 30 min preincubation, together with: Ac-WEHD-AMC 10 µM).
The IC50 of `COc1ccc2[nH]cc(/C=C/c3ccc(OS(=O)(=O)c4ccc(C)cc4)cc3)c2c1` is reported as over 100000 nM (IDO1; enzyme activity, inhibitor).
For `CC(C)CNC(=O)CSc1nc2ccc(NC(=O)CSc3ccc(C(C)C)cc3)cc2s1`, the IC50 was over 50000 nM (Estrogen receptor (ESR1, Homo sapiens, UniProt P03372); reporter gene, antagonist; HEC-1 transfected ERα luciferase reporter).
With `Cc1ccc(-c2cc(C(F)(F)F)c(C#N)c(SCC(=O)Nc3ccc(F)cc3)n2)cc1` the IC50 was over 10000 nM (TAAR1 (Homo sapiens, UniProt Q96RJ0)).
The IC50 of `CN1CCN(Cc2ccc(NC(=O)c3cncc(C#Cc4cncc5ncccc45)c3)cc2C(F)(F)F)CC1` is reported as 2.86 ± 0.12 nM (Kinesin-1 heavy chain/ Tyrosine-protein kinase receptor RET (RET/KIF5B, Homo sapiens, UniProt P07949+P33176); cell viability, inhibitor, CellTiter-Glo; Ba/F3 KIF5B-RET wild type).
With `Fc1cccc(/C=C/c2c[nH]c3ccc(F)cc23)c1` the IC50 was 4900 nM (IDO1; enzyme activity, inhibitor).
The IC50 of `O=C(Nc1ccccc1)C12CC1/C(=N\O)c1cc(F)ccc1O2` (stereo not shown) is reported as over 5000 nM (Grm1 (Rattus norvegicus, UniProt P23385); antagonist, calcium mobilization; BHK; together with: glutamate EC80).
For `CCN(CC)Cc1cccc(/C=C/c2nc3ccc(F)cc3c(=O)n2-c2ccccc2Cl)n1`, the IC50 was 760 ± 30 nM (Gria2 (Rattus norvegicus, UniProt P19491); glutamate-induced current, inhibitor, whole-cell patch clamp; HEK293; holding -60 mV, together with: 3 mM glutamate, 30 µM cyclothiazide).
For `O=C(NO)c1ccc(F)cc1`, the IC50 was 321 nM (HDAC6 (Homo sapiens, UniProt Q9UBN7); enzyme activity, inhibitor, electrophoretic mobility shift; together with: FAM-RHKK(Ac)-NH2 1 µM).
With `COc1cc2nccc(Oc3ccc(NC(=S)NC4CCC4)c(Cl)c3)c2cc1C(N)=O` the IC50 was 161 nM (PDGFRB (Homo sapiens, UniProt P09619)).
The IC50 of `Cc1n[nH]c(C)c1CCOC(=O)c1cccc2c1oc(=O)n2C` is reported as 7800 ± 4800 nM (CD28, with CD80 (Homo sapiens, UniProt P10747); B7-1 binding, inhibitor, competitive ELISA).
The IC50 of `O=C(NCc1ccc(Cl)cc1)[C@@H]1C[C@@H](O)CN1C(=O)c1ccc(Cl)cc1` is reported as 70000 ± 10000 nM (von Hippel-Lindau disease tumor suppressor, with elongin B, C (VHL, Homo sapiens, UniProt P40337); binding, fluorescence polarization; 10% DMSO, together with: FAM-HIF1α peptide tracer).
The IC50 of `CC(C)C[C@H](NC(=O)c1cc(C(=O)O)cc([C@H]2CCN[C@@H]2C(=O)O)c1)C(=O)O` is reported as 33000 nM (AMPA receptor (rat); binding, radioligand binding; rat cortical synaptosomes; together with: [3H]AMPA).
For `C=CCN(CC=C)C(=O)Oc1ccccc1C=C1Cc2cc(OC)c(OC)cc2C1=O`, the IC50 was 75.8 ± 4.77 nM (Cocaine esterase (CES2, Homo sapiens, UniProt O00748); inhibitor; 33 min preincubation, together with: fluorescein diacetate).
`Cc1ccccc1C(C(=O)NC1CCCCC1)N(C(=O)Cn1ccnc1C)c1cccc([125I])c1` (racemic) has an IC50 of under 50 nM (IDH1 (Homo sapiens, UniProt O75874, R132H); enzyme activity, inhibitor; racemate, together with: alpha-ketoglutarate substrate).
`COc1ccccc1C(=O)Nc1ccc(-c2nc3ccc(NC(=O)c4ccccc4OC)cc3s2)cc1` gave an IC50 of 17400 nM (Tyrosine-protein kinase SYK, with FCER1G (SYK, Homo sapiens, UniProt P43405); protein binding, inhibitor, TR-FRET).
`CN1CC[C@H](c2c(O)cc(O)c3c(=O)cc(-c4ccccc4F)oc23)[C@H](O)C1` gave an IC50 of 1420 nM (Cyclin-dependent kinase 3, with cyclin E (CDK3, Homo sapiens, UniProt Q00526); ATP at Km).
For `O=C(/C=C/c1ccc(O)c(OC(F)(F)F)c1)C(CCOCCOC1CCCCO1)C(=O)/C=C/c1ccc(O)c(OC(F)(F)F)c1` (stereo not shown), the IC50 was 650 nM (Amyloid-beta precursor protein, Aβ aggregates (APP, Homo sapiens, UniProt P05067); binding, thioflavin T competition).
The IC50 of `COc1ccc2nc3ccccc3c(SCCCN3C(=O)c4ccccc4C3=O)c2c1` is reported as 8800 nM (HASPIN (Homo sapiens, UniProt Q8TF76); inhibitor, TR-FRET; together with: histone H3 peptide).
